Published values from different studies.
A part holds a random share of what one study measured.

Series 1
Target: RNA binding protein fox-1 homolog 2, RRM domain, GST-SBP tag (RBFOX2, Homo sapiens, UniProt O43251-10, residues 100-194)
Method: RNA Bind-n-Seq
Form: RNA
Matrix: in vitro
Concentration: 365 nM
Setting: natural RNA segment, single round, ends assumed
Reference: no-protein control
Direction: higher = stronger binding
All sequences stand within: GGGAGUUCUACAGUCCGACGAUC … UGGAAUUCUCGGGUGCCAA
Residues (chain): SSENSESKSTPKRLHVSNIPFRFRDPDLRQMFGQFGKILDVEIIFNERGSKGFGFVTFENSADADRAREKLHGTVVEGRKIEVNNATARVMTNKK
Strand | RBNS enrichment (R)
UUUGACUUUUUGGAAUUUAACAGUUUUAUUUUGGCCUUGUACUUGCCUGUAUUAUAAUGUGAAUUUUGUAGAUGUAGGGAAUAAGUUGCUGUAAAAUGUGUGUAAAUUUG | 0.891
CUUUGAGAUACAUUGUUUUGGAAAUUCAUACAAUUUUCUCAACAUUGUAUUCUACUGACAGGAUGCGGUUUUAAAUUUUAUGCCAUCUGUUAUUUAUUCUUGUUUAUUCA | 0.695
ACGUGGGACACCAUUCAAUUGAUUGCUUUAAGGAAUUUUUAGAGACAUUAUACAGUAUCCUUUUCAGUCCUGCCAUAGAGAGGAACUAGAAUUCAGAUCUCAAUAUUAGG | 0.97
UCCGCCGCCUUCCACGCUAGGAUGUAAGAGGUCGCCUCCUAUUGUACAUUUGGGGAAAGCCUUGGGUGUAAAUCAGUGUAAACUUGGAGGAGAGAUUUUUCUAUCAUGUA | 0.279
AUACUAAAAUCAUUUGUCUAAAAUUUAAGUUGUUUUCAAAUAAAAGUUGAAAUGCAUUCCUGUGUGCUCUGGUUGCACGGCCUCCAGAGCCUGGCGUCCGUGCUCUGUCC | 0.283
UUGAGGAGGUGCUGCUGUUUGCUUUUAGGUAUGAGUGCUCAGGGGCCCUCACUGAAAGAGCCCAUGCCUGCCUUCCUCCUUUCAUCGCCUCUCUAGAGCCCCCAAAGUCA | 0.359
AUGUUCCCAAAUUCAGCAGUAACGUCCACAUGGGACCUUUUCACGUGACUCUGUGGGGCUUCUUUCUCCUUUUCACUUUCCCCUUUAACCCAUGUCUGACUUAGUGCUGC | 0.423

Series 2
Target: Histone acetyltransferase KAT6A, winged helix 2, GST fusion (KAT6A, Homo sapiens, UniProt Q92794, residues 85-181)
Method: protein binding microarray
Form: double-stranded DNA, one strand shown
Matrix: in vitro
Concentration: not given
Setting: 8-mer, flanks averaged, mean of 2 arrays, mostly near background
Reference: not given
Direction: higher = stronger binding
Target sequence (chain): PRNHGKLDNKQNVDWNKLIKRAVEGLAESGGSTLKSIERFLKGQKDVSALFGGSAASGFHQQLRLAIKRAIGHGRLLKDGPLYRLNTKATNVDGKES
Strand | E-score
TCATTCGA | -0.0623
GGCCCCCC | 0.152
AAGATGAA | -0.0448
AGACCATC | -0.192
AAGTGAAC | -0.0995
CGCAACAA | 0.0883

Series 3
Target: Interferon regulatory factor 7, full length, phosphomimetic (IRF7, Homo sapiens, UniProt Q92985, residues 1-503, S101K/S471D/S472D/S475D/S476D/S477D/S483D/S484D/S487D)
Method: protein-binding microarray
Form: double-stranded DNA, one strand shown
Matrix: in vitro
Concentration: 250 nM
Setting: 60-bp whole probe
With: salmon DNA 0.4 mg/ml
Reference: random background probes
Direction: higher = stronger binding
All sequences stand within: GCCTAGCAC … GTCTTGATTCGCTTGACGCTGCTG
Target sequence (chain): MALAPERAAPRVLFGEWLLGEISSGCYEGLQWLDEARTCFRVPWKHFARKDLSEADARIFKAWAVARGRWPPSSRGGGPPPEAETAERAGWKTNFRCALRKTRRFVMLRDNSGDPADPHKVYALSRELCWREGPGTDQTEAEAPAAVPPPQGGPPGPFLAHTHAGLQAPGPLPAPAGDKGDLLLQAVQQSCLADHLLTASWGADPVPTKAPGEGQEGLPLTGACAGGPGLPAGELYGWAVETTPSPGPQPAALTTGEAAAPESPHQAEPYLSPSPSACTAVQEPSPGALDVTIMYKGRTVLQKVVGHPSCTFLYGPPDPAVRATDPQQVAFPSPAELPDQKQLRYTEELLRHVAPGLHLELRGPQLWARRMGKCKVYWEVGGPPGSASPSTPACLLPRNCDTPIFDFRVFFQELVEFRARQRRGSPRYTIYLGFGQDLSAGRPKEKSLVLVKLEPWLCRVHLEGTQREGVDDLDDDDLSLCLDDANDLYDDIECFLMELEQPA
Strand | log fluorescence [z-score]
GGCGGTTTCGGGTTTCGGGACGTGCTA | 11.9
GACGGTATACTACTGCTGACGTGCTAG | -0.448
TCAGTTTCACTTTCCAAACTGTGCTAG | 11.5
GACGATTTCAGAATGGAGACGTGCTAG | 0.252
TCAGGGCTCTCTTCTGCTACTGTGCTA | -0.384
GACGATTTCGGGTATCGATACGTGCTA | 1.25
TACGGTATCGGGTTTCGGGACGTGCTA | 3.43
GACGGTTTCGATCTCGGGACGTGCTAG | 9.29
TTAGGACTGTTACTGCTTTAGTGCTAG | 0.112

Series 4
Substance: PhoQ, residues 284 288 289 292 302 303 GLASVI
Method: Sort-seq
Refers to: YFP reporter
Matrix: E. coli
Setting: PhoQ-PhoP variant library
With: 10 µM Mg2+
Reference: high Mg2+ state
Direction: higher = stronger signaling
target | fold induction
PhoP, residues 12 14 15 18 19 QYCSL (Escherichia coli, UniProt P23836) | 4.81
PhoP, residues 12 14 15 18 19 STHWV (Escherichia coli, UniProt P23836) | 2.18
PhoP, residues 12 14 15 18 19 SHWTV (Escherichia coli, UniProt P23836) | 17.7

A few entries again (series 3):
Strand | log fluorescence [z-score]
GACGATTTCAGAATGGAGACGTGCTAG | 0.252
TCAGGGCTCTCTTCTGCTACTGTGCTA | -0.384
GACGATTTCGGGTATCGATACGTGCTA | 1.25
